Measured values collected from several papers.
Lines come from different studies, so protocols differ. ± marks the error that the study gave.
Cell line: HepG2

SMILES	assay	setting	viability
COc1ccc2c(c1)c1c(n2CO)CN2CCc3cc(OC)c(OCc4ccccc4)cc3C2C1 (stereo not drawn)	cell growth or viability	5 µM, 24 h	110%
COc1cc(Oc2c(O)cc(C)cc2OC)c(C(=O)O)c(C)c1O	MTT	10 or 50 µM, 48 h	118 ± 31.6%
CC[C@H](C)[C@@H](C(=O)N[C@@H](Cc1ccc(O)cc1)C(=O)N1CCC[C@H]1C(=O)N[C@@H](Cc1ccccc1)C(=O)O)n1cc(C(Cc2ccc(O)cc2)NC(=O)[C@@H](NC(=O)[C@H](CCCNC(=N)N)NC(=O)[C@@H](N)CC(=O)O)C(C)C)nn1 (stereo partly drawn)	cell growth or viability, MTT	100 µM, 24 h	72.3%
CC1CCN(C(=O)c2cccc(NC(=O)Nc3ccc([N+](=O)[O-])cc3)c2)CC1	cell growth or viability, MTT	100 µM	75.7%
COc1ccc2c(c1)c1c(n2CO)CN2CCc3cc(OCc4cccc(F)c4)c(OC)cc3C2C1 (stereo not drawn)	cell growth or viability	10 µM, 24 h	114%
COc1cc(Oc2c(O)c(Cl)c(C)c(Cl)c2OC)c(C(=O)O)c(C)c1O	MTT	10 or 50 µM, 48 h	92.6 ± 20%
CC1CCN(C(=O)c2cccc(NC(=O)NC3CCCCC3)c2)CC1	cell growth or viability, MTT	100 µM	93.9%
c1cc2nc(c1)-c1cccc(n1)CCCc1ccc(cc1)OCCCCCCOc1ccc(cc1)CCC2	cell growth or viability, MTT	50 µM, 24 h	85.9%
COc1cc(Oc2c(O)c(Br)c(C)c(Br)c2OC)c(C(=O)O)c(C)c1O	MTT	10 or 50 µM, 48 h	93.9 ± 20.6%

Repeated from above:
SMILES	assay	setting	viability
CC[C@H](C)[C@@H](C(=O)N[C@@H](Cc1ccc(O)cc1)C(=O)N1CCC[C@H]1C(=O)N[C@@H](Cc1ccccc1)C(=O)O)n1cc(C(Cc2ccc(O)cc2)NC(=O)[C@@H](NC(=O)[C@H](CCCNC(=N)N)NC(=O)[C@@H](N)CC(=O)O)C(C)C)nn1 (stereo partly drawn)	cell growth or viability, MTT	100 µM, 24 h	72.3%
